Experimental data collected from several papers.
Every numbered part comes from another study and shows a few of its results, in no order.
UniProt Q14680, sequence (whole entry, looked up): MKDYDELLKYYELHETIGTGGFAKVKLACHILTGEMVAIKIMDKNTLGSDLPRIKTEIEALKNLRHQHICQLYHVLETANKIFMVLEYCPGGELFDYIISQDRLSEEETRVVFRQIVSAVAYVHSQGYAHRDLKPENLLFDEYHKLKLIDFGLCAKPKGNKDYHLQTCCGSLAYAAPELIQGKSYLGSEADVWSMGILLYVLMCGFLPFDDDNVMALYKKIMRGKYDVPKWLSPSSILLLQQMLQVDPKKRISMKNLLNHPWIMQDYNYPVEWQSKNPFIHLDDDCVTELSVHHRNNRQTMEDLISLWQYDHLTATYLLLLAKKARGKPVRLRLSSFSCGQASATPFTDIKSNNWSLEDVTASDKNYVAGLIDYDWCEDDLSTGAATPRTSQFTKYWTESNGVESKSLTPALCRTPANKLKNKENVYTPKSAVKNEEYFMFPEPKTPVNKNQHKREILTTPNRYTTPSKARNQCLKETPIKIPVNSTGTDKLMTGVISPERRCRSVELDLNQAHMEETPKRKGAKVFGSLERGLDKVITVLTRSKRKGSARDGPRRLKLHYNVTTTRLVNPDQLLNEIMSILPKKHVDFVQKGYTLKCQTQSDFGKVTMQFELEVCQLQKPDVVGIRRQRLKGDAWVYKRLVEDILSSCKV
UniProt Q9Y5S2, sequence (whole entry, looked up): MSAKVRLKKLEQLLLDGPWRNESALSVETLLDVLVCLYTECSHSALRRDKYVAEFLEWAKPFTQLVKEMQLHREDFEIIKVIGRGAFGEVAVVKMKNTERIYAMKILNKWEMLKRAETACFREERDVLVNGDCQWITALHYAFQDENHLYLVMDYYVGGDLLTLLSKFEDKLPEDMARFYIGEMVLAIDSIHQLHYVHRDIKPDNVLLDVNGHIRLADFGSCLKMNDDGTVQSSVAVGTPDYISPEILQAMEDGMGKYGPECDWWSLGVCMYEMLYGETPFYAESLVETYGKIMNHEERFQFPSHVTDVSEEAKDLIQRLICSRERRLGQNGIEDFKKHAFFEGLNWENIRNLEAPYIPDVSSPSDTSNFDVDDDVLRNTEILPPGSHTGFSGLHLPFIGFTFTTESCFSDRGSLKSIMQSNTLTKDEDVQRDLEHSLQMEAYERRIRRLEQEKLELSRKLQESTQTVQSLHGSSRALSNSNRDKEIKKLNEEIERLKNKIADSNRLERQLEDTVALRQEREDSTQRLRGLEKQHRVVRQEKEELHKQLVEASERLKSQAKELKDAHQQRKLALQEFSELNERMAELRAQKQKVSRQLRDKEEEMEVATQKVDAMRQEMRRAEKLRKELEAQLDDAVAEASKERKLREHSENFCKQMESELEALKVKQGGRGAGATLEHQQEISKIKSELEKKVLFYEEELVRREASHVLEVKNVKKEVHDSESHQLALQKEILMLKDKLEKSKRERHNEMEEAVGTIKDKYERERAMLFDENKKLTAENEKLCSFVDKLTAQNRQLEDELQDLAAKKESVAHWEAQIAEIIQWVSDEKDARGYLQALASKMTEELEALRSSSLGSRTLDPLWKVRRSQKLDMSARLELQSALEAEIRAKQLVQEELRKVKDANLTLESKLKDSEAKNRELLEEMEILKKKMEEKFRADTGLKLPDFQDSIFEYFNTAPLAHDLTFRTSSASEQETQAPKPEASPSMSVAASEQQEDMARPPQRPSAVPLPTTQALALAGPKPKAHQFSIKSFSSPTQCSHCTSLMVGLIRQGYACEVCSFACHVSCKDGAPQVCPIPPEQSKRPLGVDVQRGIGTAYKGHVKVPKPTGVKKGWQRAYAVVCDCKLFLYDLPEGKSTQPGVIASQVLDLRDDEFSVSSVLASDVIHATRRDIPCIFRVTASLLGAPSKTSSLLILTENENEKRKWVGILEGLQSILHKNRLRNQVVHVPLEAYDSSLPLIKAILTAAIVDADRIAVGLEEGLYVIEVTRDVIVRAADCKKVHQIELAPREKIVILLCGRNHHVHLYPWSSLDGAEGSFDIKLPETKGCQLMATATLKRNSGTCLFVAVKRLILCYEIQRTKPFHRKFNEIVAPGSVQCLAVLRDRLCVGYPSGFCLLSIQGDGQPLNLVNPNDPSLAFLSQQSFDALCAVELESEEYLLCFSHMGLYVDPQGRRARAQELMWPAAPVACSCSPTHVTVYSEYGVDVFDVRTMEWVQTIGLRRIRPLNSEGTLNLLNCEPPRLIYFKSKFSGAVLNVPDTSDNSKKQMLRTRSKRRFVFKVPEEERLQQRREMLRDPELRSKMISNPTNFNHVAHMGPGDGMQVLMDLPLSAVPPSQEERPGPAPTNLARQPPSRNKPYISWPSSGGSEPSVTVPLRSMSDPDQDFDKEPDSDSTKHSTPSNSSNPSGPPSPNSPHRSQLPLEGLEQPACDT
UniProt Q6ZN16, sequence (whole entry, looked up): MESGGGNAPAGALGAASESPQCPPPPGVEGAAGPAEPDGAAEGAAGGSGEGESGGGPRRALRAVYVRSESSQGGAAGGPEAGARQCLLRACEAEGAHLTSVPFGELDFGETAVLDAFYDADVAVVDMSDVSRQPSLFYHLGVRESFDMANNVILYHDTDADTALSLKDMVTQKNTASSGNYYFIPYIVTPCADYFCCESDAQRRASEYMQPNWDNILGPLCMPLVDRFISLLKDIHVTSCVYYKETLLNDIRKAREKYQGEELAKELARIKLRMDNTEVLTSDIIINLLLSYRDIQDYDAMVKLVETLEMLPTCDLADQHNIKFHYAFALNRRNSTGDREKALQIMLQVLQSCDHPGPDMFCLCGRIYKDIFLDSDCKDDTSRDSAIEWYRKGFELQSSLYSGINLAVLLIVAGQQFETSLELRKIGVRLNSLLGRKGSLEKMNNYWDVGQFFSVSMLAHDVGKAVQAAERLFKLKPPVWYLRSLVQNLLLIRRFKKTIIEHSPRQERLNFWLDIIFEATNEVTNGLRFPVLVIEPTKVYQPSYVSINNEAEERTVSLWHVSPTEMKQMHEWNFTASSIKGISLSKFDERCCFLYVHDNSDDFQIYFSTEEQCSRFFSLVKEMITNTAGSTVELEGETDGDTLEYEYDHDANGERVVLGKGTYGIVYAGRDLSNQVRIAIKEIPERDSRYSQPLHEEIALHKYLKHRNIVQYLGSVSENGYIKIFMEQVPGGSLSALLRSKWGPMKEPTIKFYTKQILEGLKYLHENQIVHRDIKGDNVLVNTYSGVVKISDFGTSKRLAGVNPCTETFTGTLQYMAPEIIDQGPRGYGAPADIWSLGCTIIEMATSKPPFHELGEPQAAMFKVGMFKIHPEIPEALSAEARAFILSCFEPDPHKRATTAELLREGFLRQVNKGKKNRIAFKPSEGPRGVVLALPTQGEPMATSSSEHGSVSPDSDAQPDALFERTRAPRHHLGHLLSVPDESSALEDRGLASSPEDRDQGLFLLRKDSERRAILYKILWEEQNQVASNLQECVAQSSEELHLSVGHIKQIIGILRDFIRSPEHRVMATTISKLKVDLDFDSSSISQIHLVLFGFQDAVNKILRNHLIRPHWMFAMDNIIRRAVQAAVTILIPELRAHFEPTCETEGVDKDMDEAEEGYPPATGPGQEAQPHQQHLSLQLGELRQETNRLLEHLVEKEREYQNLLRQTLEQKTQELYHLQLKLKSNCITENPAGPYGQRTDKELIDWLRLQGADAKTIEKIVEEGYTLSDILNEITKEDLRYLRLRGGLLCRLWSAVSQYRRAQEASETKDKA

Set 1 — read-out: enzyme activity; mode: inhibitor; concentration: 10 µM
Target: Calcium/calmodulin-dependent protein kinase type II subunit alpha (CAMK2A, Homo sapiens, UniProt Q9UQM7)
UniProt Q9UQM7, sequence (whole entry, looked up): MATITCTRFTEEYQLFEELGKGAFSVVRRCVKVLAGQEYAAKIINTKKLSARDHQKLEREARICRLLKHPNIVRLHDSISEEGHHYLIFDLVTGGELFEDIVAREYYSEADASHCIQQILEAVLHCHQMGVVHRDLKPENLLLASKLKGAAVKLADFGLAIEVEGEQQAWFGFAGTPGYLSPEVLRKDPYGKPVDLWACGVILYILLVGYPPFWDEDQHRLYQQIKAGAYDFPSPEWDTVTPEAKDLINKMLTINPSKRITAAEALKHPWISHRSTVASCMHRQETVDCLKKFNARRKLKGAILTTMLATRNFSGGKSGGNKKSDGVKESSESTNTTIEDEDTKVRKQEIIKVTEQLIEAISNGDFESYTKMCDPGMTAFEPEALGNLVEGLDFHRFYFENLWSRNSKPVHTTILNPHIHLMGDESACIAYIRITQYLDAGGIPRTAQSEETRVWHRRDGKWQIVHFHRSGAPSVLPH
The inhibition of `CC1(C)[C@@H](O)CC[C@]2(C)[C@H]3C(=O)C=C4[C@H]5C[C@@](C)(C(=O)O)CC[C@]5(C)CC[C@@]4(C)[C@]3(C)CC[C@@H]12` is reported as 4%.
The inhibition of `CN(C)CCCN1c2ccccc2CCc2ccccc21` is reported as 1%.
`COC(=O)CC(O)(CC(=O)O)C(=O)OC` (centres unmarked) has an inhibition of -19%.
For `CN(C)[C@@H]1C(O)=C(C(N)=O)C(=O)[C@@]2(O)C(O)=C3C(=O)c4c(O)ccc(Cl)c4[C@@H](O)[C@H]3C[C@@H]12`, the inhibition was 29%.
With `Cn1cc(C(=O)O)ccc1=O` the inhibition was -26%.
With `CC1(C)[C@@H](OC(=O)CCC(=O)O)CC[C@]2(C)[C@H]3C(=O)C=C4[C@@H]5C[C@@](C)(C(=O)O)CC[C@]5(C)CC[C@@]4(C)[C@]3(C)CC[C@@H]12` the inhibition was -3%.
`CNCc1ccccc1` has an inhibition of -9%.
`C=C(CCC(C(=O)O)[C@H]1[C@H](O)C[C@@]2(C)C3=CC[C@H]4C(C)(C)[C@@H](OC(C)=O)CC[C@]4(C)C3=CC[C@]12C)C(C)C` (some centres unmarked) gave an inhibition of 13%.
With `C[C@H](CC[C@@H](O)C(C)(C)O)[C@H]1CC[C@@]2(C)[C@@H]3CC=C4[C@@H](CC[C@H](O)C4(C)C)[C@]3(C)C(=O)C[C@]12C` the inhibition was 15%.
The inhibition of `CC[C@@H](N)C(=O)O` is reported as 24%.
With `Cc1cc(C)cc(OCC2CNC(=O)O2)c1` (centres unmarked) the inhibition was -15%.
`CC(C)C[C@H](NC(=O)[C@H](C)N)C(=O)O` has an inhibition of -10%.
`CC(C)(C)C(=O)OCOP(=O)(COCCn1cnc2c(N)ncnc21)OCOC(=O)C(C)(C)C` has an inhibition of 1%.
`OC[C@H]1O[C@@H](Oc2cc(O)cc(C=Cc3ccc(O)cc3)c2)[C@H](O)[C@@H](O)[C@@H]1O` (mixture of isomers) has an inhibition of -24%.
`COc1cc(N2CCC(N3CCN(C)CC3)CC2)ccc1Nc1ncc(Cl)c(Nc2ccccc2P(C)(C)=O)n1` gave an inhibition of 63%.
`O=P(O)(O)OC[C@H](O)CO` gave an inhibition of 6%.
For `Nc1ccccc1NC(=O)c1ccc(CNc2nccc(-c3cccnc3)n2)cc1`, the inhibition was 2%.

Set 2 — read-out: RNA clamping; technique: fluorescence polarization; concentration: concentration not given; added: FAM-labelled poly r(AG)8 RNA
Target: Eukaryotic initiation factor 4A-III (Homo sapiens, UniProt P38919)
UniProt P38919, sequence (whole entry, looked up): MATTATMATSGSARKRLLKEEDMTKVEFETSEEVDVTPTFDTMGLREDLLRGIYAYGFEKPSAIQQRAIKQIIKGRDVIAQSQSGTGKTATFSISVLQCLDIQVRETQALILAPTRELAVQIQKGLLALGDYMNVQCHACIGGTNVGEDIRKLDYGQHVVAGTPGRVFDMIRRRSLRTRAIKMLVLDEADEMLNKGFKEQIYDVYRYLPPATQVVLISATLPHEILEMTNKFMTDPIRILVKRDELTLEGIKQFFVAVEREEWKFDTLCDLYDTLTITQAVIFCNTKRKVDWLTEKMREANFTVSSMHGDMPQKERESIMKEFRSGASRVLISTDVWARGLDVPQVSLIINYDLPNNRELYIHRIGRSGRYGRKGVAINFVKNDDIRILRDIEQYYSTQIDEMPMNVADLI
For `CCOC(=O)COc1cc(OC)c2c(c1)O[C@@]1(c3ccc(OC)cc3)[C@H](c3ccccc3)c3c(nc(-c4ccccc4)[nH]c3=O)[C@@]21OCC(=O)OCC`, “fluorescence polarization change” read 2.2 mP.
Under “fluorescence polarization change”, `CCOC(=O)[C@H]1[C@@H](O)[C@@]2(O)c3c(OC)cc(OC)cc3O[C@@]2(c2ccc(OC)cc2)[C@@H]1c1ccc(Br)cc1` is recorded as -4.3 mP.
Under “fluorescence polarization change”, `COC(=O)[C@H]1[C@@H](O)[C@@]2(O)c3c(OC)cc(OS(=O)(=O)c4ccc(C)cc4)cc3O[C@@]2(c2ccc(OC)cc2)[C@@H]1c1ccccc1` is recorded as -4.8 mP.
`COc1ccc([C@@]23Oc4cc(OC)cc(OC)c4[C@@](O)(C2=O)[C@H](c2ccccc2)[C@H]3c2ccccc2)cc1` — result for “fluorescence polarization change”: -0.8 mP.
Under “fluorescence polarization change”, `COc1ccc([C@]23Oc4cc(OC)cc(OC)c4[C@@]2(O)c2nc(-c4cccc(OC)c4)[nH]c(=O)c2[C@@H]3c2ccccc2)cc1` is recorded as 15 mP.
Under “fluorescence polarization change”, `COC(=O)[C@H]1C(=O)[C@@]2(NCc3nccn3C)c3c(OC)cc(OC)cc3O[C@@]2(c2ccc(OC)cc2)[C@@H]1c1ccccc1` is recorded as 2 mP.
Under “fluorescence polarization change”, `COC(=O)[C@@H]1[C@@H](c2ccccc2)[C@]2(c3ccc(OC)cc3)Oc3cc(OC)cc(OC)c3[C@@]23NC(C(C)C)=N[C@@]13O` is recorded as 19.7 mP.
For `COc1ccc([C@]23[C@@H](c4ccccc4)C[C@@H](O)[C@@]2(O)c2c(F)cccc2N3C)cc1`, “fluorescence polarization change” read 9 mP.
For `COc1ccc([C@@]23Oc4cc(OC)cc(OC)c4[C@]2(O)[C@@H](O)[C@H](C(=O)c2ccco2)[C@H]3c2ccccc2)cc1`, “fluorescence polarization change” read 16.9 mP.
Under “fluorescence polarization change”, `COc1cc(OC)c2c(c1)O[C@@]1(c3ccc(Br)cc3)[C@H](c3ccccc3)C3=C(N[C@@H]4CCCN4C3=O)[C@@]21O` is recorded as 29.2 mP.
Under “fluorescence polarization change”, `COC(=O)[C@@H]1[C@@H](c2ccccc2)[C@]2(c3ccc(OC)cc3)Oc3cc(OC)cc(OC)c3[C@@]23OC(c2ccc(C(F)(F)F)cc2)=N[C@@]13O` is recorded as -2.1 mP.
`C#CCOc1ccc(-c2nc3c(c(=O)n2CC#C)[C@@H](c2ccccc2)[C@]2(c4ccc(OC)cc4)Oc4cc(OC)cc(OC)c4[C@]32O)cc1` — result for “fluorescence polarization change”: 2 mP.

Set 3 — concentration: 1 µM
SMILES: C[C@@H]1CN(c2cc(-c3nn(C)c4ccc(OC5(C)CC5)cc34)ncn2)C[C@H](C)O1
It gave 100% for remaining binding (WEE1 (Homo sapiens, UniProt P30291); cell-free assay, competition with immobilised ligand).
The remaining binding was 100% (TXK (Homo sapiens, UniProt P42681); binding, competition with immobilised ligand).
For MAP3K6 (Homo sapiens, UniProt O95382); cell-free assay, competition with immobilised ligand: remaining binding read 76%.
It gave 89% for remaining binding (AKT2 (Homo sapiens, UniProt P31751); cell-free assay, competition with immobilised ligand).
The remaining binding was 68% (MAP3K19 (Homo sapiens, UniProt Q56UN5); cell-free assay, competition with immobilised ligand).
The remaining binding was 69% (ERN1 (Homo sapiens, UniProt O75460); cell-free assay, competition with immobilised ligand).
MAP2K4 (Homo sapiens, UniProt P45985); cell-free assay, competition with immobilised ligand — remaining binding: 82%.
ACVR1B (Homo sapiens, UniProt P36896); cell-free assay, competition with immobilised ligand — remaining binding: 78%.
The remaining binding was 92% (CDK19 (Homo sapiens, UniProt Q9BWU1); competition binding).
The remaining binding was 80% (MAP3K15 (Homo sapiens, UniProt Q6ZN16); cell-free assay, competition with immobilised ligand).
For CDC42BPB (Homo sapiens, UniProt Q9Y5S2); cell-free assay, competition with immobilised ligand: remaining binding read 100%.
For EGFR (Homo sapiens, UniProt P00533, T790M); cell-free assay, competition with immobilised ligand: remaining binding read 100%.
For MAP4K2 (Homo sapiens, UniProt Q12851); cell-free assay, competition with immobilised ligand: remaining binding read 81%.
It gave 55% for remaining binding (MELK (Homo sapiens, UniProt Q14680); cell-free assay, competition with immobilised ligand).
CSNK1D (Homo sapiens, UniProt P48730); cell-free assay, competition with immobilised ligand — remaining binding: 84%.
MYLK4 (Homo sapiens, UniProt Q86YV6); cell-free assay, competition with immobilised ligand — remaining binding: 100%.
It gave 96% for remaining binding (HCK (Homo sapiens, UniProt P08631); cell-free assay, competition with immobilised ligand).
MAP3K1 (Homo sapiens, UniProt Q13233); cell-free assay, competition with immobilised ligand — remaining binding: 92%.
For DMPK (Homo sapiens, UniProt Q09013); cell-free assay, competition with immobilised ligand: remaining binding read 100%.
TTK (Homo sapiens, UniProt P33981); cell-free assay, competition with immobilised ligand — remaining binding: 100%.
For MET (Homo sapiens, UniProt P08581, Y1235D); cell-free assay, competition with immobilised ligand: remaining binding read 87%.
CSNK1A1L (Homo sapiens, UniProt Q8N752); cell-free assay, competition with immobilised ligand — remaining binding: 78%.
MAPK11 (Homo sapiens, UniProt Q15759); cell-free assay, competition with immobilised ligand — remaining binding: 88%.
It gave 100% for remaining binding (DYRK1B (Homo sapiens, UniProt Q9Y463); cell-free assay, competition with immobilised ligand).
It gave 88% for remaining binding (FLT3 (Homo sapiens, UniProt P36888, D835V/ITD); cell-free assay, competition with immobilised ligand).

Set 4 — read-out: enzyme activity; mode: inhibitor; concentration: 0.5 µM; relative to: control
Target: Receptor-interacting serine/threonine-protein kinase 2 (RIPK2, Homo sapiens, UniProt O43353)
UniProt O43353, sequence (whole entry, looked up): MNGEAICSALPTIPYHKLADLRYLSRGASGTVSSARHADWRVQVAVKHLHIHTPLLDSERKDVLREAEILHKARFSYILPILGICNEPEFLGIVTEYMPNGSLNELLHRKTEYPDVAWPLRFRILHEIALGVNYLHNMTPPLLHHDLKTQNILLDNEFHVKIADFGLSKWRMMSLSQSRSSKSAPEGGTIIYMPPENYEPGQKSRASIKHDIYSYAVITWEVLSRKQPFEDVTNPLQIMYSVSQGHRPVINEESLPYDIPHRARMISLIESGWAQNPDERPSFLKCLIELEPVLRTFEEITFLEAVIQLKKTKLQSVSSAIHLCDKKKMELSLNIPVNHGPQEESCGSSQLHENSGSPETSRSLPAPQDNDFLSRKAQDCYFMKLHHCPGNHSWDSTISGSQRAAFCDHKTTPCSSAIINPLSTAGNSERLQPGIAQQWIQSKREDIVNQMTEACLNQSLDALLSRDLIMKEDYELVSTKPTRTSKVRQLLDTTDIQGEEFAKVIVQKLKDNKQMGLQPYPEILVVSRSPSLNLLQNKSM
`c1ccc2c(-c3ccncc3)c[nH]c2c1` gave a remaining activity of 89.9%.
`O=C1Cc2c([nH]c3ccc(Br)cc23)-c2ccccc2N1` has a remaining activity of 75.9%.
With `O=Nc1c(-c2c(O)[nH]c3cc(Br)ccc23)[nH]c2ccccc12` the remaining activity was 75.2%.
The remaining activity of `c1ccc(-c2n[nH]c3c2oc2ccccc23)cc1` is reported as 78.8%.
`CN1CCN(c2ccc3nc(-c4c(N)c5c(F)cccc5[nH]c4=O)[nH]c3c2)CC1` gave a remaining activity of 93%.
For `O=C1Nc2ccccc2/C1=C\c1c(Cl)[nH]c2ccccc12`, the remaining activity was 85.4%.
`O=C1NC(=O)c2c1c1c3ccccc3[nH]c1n1cncc21` gave a remaining activity of 67.5%.
The remaining activity of `Cc1cc(Nc2cc(N3CCN(C)CC3)nc(Sc3ccc(NC(=O)C4CC4)cc3)n2)[nH]n1` is reported as 104%.
For `CCCNC(=O)Nc1ccc(Oc2ncnc3cc(OC)c(OC)cc23)cc1Cl`, the remaining activity was 84.8%.
For `O=C(c1cc2cc(O)ccc2[nH]1)c1cc2cc(O)ccc2[nH]1`, the remaining activity was 37.8%.
`CCCCc1c(-c2ccc(OC)cc2)[nH]c2nccnc12` gave a remaining activity of 71%.
`O=c1cc(N2CCOCC2)oc2c(-c3ccccc3)cccc12` has a remaining activity of 89.9%.
For `CN(C)S(=O)(=O)c1ccc2c(c1)/C(=C/c1cc3c([nH]1)CCCC3)C(=O)N2`, the remaining activity was 88.9%.
`COc1ccc(COc2ccc(Cc3cnc(N)nc3N)cc2OC)cc1` gave a remaining activity of 81.9%.
For `N#Cc1cnc2cnc(NCc3cccnc3)cc2c1Nc1ccc(F)c(Cl)c1`, the remaining activity was 85.3%.
For `Oc1cccc(-c2nc(N3CCOCC3)c3oc4ncccc4c3n2)c1`, the remaining activity was 87.4%.
With `COc1cccc(-c2cc(=O)c3ccccc3o2)c1N` the remaining activity was 87.5%.
`Cc1ccc(S(=O)(=O)/C=C/C#N)cc1` has a remaining activity of 93.8%.
`O=C1Nc2ccc(Br)cc2/C1=C/c1cc2c([nH]1)CCCC2` gave a remaining activity of 87.2%.
The remaining activity of `COc1ccc2c(c1)c(C1=C(c3c[nH]c4ccccc34)C(=O)NC1=O)cn2CCCN(C)C` is reported as 70.2%.
